Experimental data of several laboratories.
Protocols differ between the studies behind these lines. ± marks the error that the study gave.

`c1cc2nc(-c3ccc(-c4nc5ccc(C6=NCCN6)cc5[nH]4)[se]3)[nH]c2cc1C1=NCCN1` has an IC50 of 0.575 µM (PU.1; reporter gene, inhibitor, item: EGFP; PU.1-expressing HEK293 cells; 24 h).
The IC50 of `Cc1ccc(CNC(=O)C(CCc2ccccc2)NC(=O)C(NC(=O)c2ccc(OCc3ccc(C(C)(C)C)cc3)cc2)C(C)O)cc1` (stereo not shown) is reported as 0.2 µM (proteasome β5 site; Proteasome-Glo; Karpas-1106P; 1 h).
`Oc1ccc(-c2cc(-c3ccc(OCCCN4CCCCC4)cc3)n(-c3ccc(O)cc3)n2)cc1` gave an IC50 of 7.12 ± 0.54 µM (TLR2 (mouse); TNF-alpha production, inhibitor; RAW264.7; 6 h, added: Pam3Cys 100 ng/mL).
`O=C(/C=C/c1ccc(O)c(O)c1)c1c(O)cc(O)cc1O` gave an IC50 of > 1000 µM (HDAC class I, II and IV (human); enzyme activity, inhibitor, fluorometric; K562 cell extract; 1 h, 37 °C).
For `CC(C)NC(=O)[C@H](CCc1ccccc1)NC(=O)[C@H](CC(=O)NCC(C)(C)C)NC(=O)CCc1ccccc1`, the IC50 was 0.12 µM (proteasome β5 site; Proteasome-Glo; WSUDLCL2; 1 h).
For `C/C=C/c1ccc(OC(C)=O)c(OC)c1`, the IC50 was 0.0219 mg/L (anti-eugenol monoclonal antibody mouse; antibody binding, indirect competitive ELISA; antibody 0.25 µg/mL, added: coating antigen Eug-222-OVA 0.5 µg/mL).
The IC50 of `N=C(N)c1ccc2nc(-c3ccc(-c4nc5ccc(C(=N)N)cc5[nH]4)[se]3)[nH]c2c1` is reported as 3.8 µM (PU.1; reporter gene, inhibitor, item: EGFP; PU.1-expressing HEK293 cells; 24 h).
The IC50 of `O=C(CCc1ccc(O)cc1)c1c(O)cc(O)cc1O` is reported as > 1000 µM (HDAC class I, II and IV (human); enzyme activity, inhibitor, fluorometric; K562 cell extract; 1 h, 37 °C).
For `CCCCC/C=C/C(=O)CCc1ccc(O)c(OC)c1`, the IC50 was > 4 mg/L (mouse mAb 1-F12; antibody binding, indirect competitive ELISA; added: coating antigen 2-OVA).
`COc1cccc(/C=C/C(=O)c2ccccc2O)c1OC` has an IC50 of > 1000 µM (HDAC class I, II and IV (human); enzyme activity, inhibitor, fluorometric; K562 cell extract; 1 h, 37 °C).
For `CCC(=O)CCCCC[C@@H]1NC(=O)[C@H](C)n2nncc2[C@H](CC(C)C)NC(=O)[C@H](Cc2c[nH]c3ccccc23)NC1=O`, the IC50 was > 10 µM (histone deacetylase; enzyme activity, inhibitor, fluorescence; HeLa nuclear extract).
The IC50 of `O=c1cc(-c2ccccc2)oc2c(Br)c(O)c(Br)c(O)c12` is reported as 10.1 to 100 µM (BSA glycation; fluorescence; added: methylglyoxal).
The IC50 of `O=C(/C=C/c1ccccc1)c1ccccc1O` is reported as > 1000 µM (HDAC class I, II and IV (human); enzyme activity, inhibitor, fluorometric; K562 cell extract; 1 h, 37 °C).
The IC50 of `CC[C@H](C)[C@@H]1NC(=O)[C@H](Cc2ccc(O)cc2)NC(=O)[C@@H](N)CSSC[C@@H](C(=O)N2CCC[C@H]2C(=O)N2CCC[C@H]2C(=O)NCC(N)=O)NC(=O)[C@H](CC(N)=O)NC(=O)[C@H](CCC(N)=O)NC1=O` is reported as 0.000203 µM (vasopressin V1a receptor, Macaca mulatta; membrane hyperpolarization, FLIPR membrane potential; CHO transfected with receptor).
`COc1cc(CCC(C)=O)ccc1O` has an IC50 of 0.68 mg/L (mouse mAb 1-F12; antibody binding, indirect competitive ELISA; added: coating antigen 1-OVA).
For `COc1ccc(/C=C/C(=O)c2c(O)cc(OC)cc2O)cc1`, the IC50 was > 1000 µM (HDAC class I, II and IV (human); enzyme activity, inhibitor, fluorometric; K562 cell extract; 1 h, 37 °C).

For quick reference, copied from above:
The IC50 of `Cc1ccc(CNC(=O)C(CCc2ccccc2)NC(=O)C(NC(=O)c2ccc(OCc3ccc(C(C)(C)C)cc3)cc2)C(C)O)cc1` (stereo not shown) is reported as 0.2 µM (proteasome β5 site; Proteasome-Glo; Karpas-1106P; 1 h).
The IC50 of `N=C(N)c1ccc2nc(-c3ccc(-c4nc5ccc(C(=N)N)cc5[nH]4)[se]3)[nH]c2c1` is reported as 3.8 µM (PU.1; reporter gene, inhibitor, item: EGFP; PU.1-expressing HEK293 cells; 24 h).
